Published values gathered from unrelated publications.
Each line is one published result; not all experiments were run side by side. “And” joins repeats or separate records; there may be more than shown.
Cell line: HeLa

Structure (SMILES)	assay	setting	scale	endpoint	result
CCCCCCCCCCCC1CC(=O)N[C@@H](CO)C(=O)N[C@H](CO)C(=O)N[C@H](C)C(=O)N(C)[C@@H](C(C)C)C(=O)N[C@H](CO)C(=O)N[C@H](CCCCN)C(=O)N[C@H](CO)C(=O)N[C@@H](CCCCN)C(=O)O1 (stereo partly shown)	MTT	32 mg	–	survival	66.2%
CC(C)(C)c1ccc([C@H](O)C[C@H](CO)NC(=O)CCCCCOc2ccc3ccccc3c2)cc1	–	1 µM, lipidomics treatment	–	living cells	95% and 92%
CC[C@H](C)[C@H](NC(=O)[C@H](C)NC(=O)[C@H](CCCCN)NC(=O)[C@H](CC(C)C)NC(=O)[C@@H](N)Cc1ccccc1)C(=O)N[C@@H](CCCCN)C(=O)N[C@@H](CCCCN)C(=O)N[C@@H](Cc1ccccc1)C(=O)NCC(=O)N[C@@H](CCCCN)C(=O)N[C@@H](CCC(=O)O)C(=O)N[C@@H](Cc1ccccc1)C(=O)N[C@@H](CCCCN)C(=O)N[C@@H](CCCCN)C(=O)N[C@H](C(=O)NCC(=O)N[C@@H](C)C(=O)N[C@@H](CCCCN)C(=O)N[C@@H](CC(C)C)C(=O)N[C@@H](CCCCN)C(=O)O)[C@@H](C)CC	MTT	16 mg/L	relative to: untreated	cell growth	90.9% and 93.9%
CCCCCCc1cccc(C(O)CC(CO)NC(=O)CCCCCCCCCCNC(C)=O)c1 (stereo not shown)	–	1 µM, lipidomics treatment	–	living cells	90% and 96% and 92%
O=C(O)CC[C@H](NC(=O)[C@H](CCC(=O)O)NC(=O)[C@H](CCC(=O)O)NC(=O)[C@H](CCC(=O)O)NC(=O)[C@H](CCC(=O)O)NC(=O)CNC(=O)[C@H](CCC(=O)O)NC(=O)CNC(=O)[C@H](CCC(=O)O)NC(=O)[C@@H](Cc1ccccc1)NC(=O)[C@@H](Cc1ccccc1)NC(=O)Cc1ccc2ccccc2c1)C(=O)O	MTT	400 µM, 3 days	–	viability	~90%
CCCCCCCCCCCCCC(=O)N[C@H]1C(=O)N[C@@H](CN)C(=O)N[C@@H](CO)C(=O)N[C@@H](Cc2ccc(O)cc2)C(=O)O[C@H]1C	MTT	32 mg	–	survival	103%
CN(C)c1ccc(-c2nc3ccccc3n2CCCOc2ccccc2)cc1	cell growth or viability, ATP luminescence	72 h	–	IC50	> 5.26 µM
CCCCCCCCCCCC1CC(=O)N[C@H]([C@H](C)O)C(=O)N[C@@H](CN)C(=O)N[C@@H](CO)C(=O)N[C@@H](Cc2ccc(O)cc2)C(=O)O1 (stereo partly shown)	MTT	32 mg	–	survival	87.4%
O[Si](CCCN1CCCCC1)(c1ccc(F)cc1)C1CCCCC1 (stereo not shown)	cell growth or viability	72 h	–	IC50	60.1 µM
CC[C@H](C)[C@H](NC(=O)[C@H](C)NC(=O)[C@H](CCCCN)NC(=O)[C@H](CCCCN)NC(=O)[C@@H](N)CCCNC(=N)N)C(=O)N[C@@H](CCCCN)C(=O)N[C@@H](CC(C)C)C(=O)N[C@H](C(=O)N[C@@H](CCCCN)C(=O)N[C@@H](CCCCN)C(=O)N[C@@H](CC(C)C)C(=O)N[C@H](C(=O)N[C@@H](CCCCN)C(=O)N[C@@H](CCCCN)C(=O)N[C@@H](CC(C)C)C(=O)N[C@@H](CCCCN)C(=O)N[C@@H](CCCCN)C(=O)N[C@@H](C)C(=O)N[C@@H](CC(C)C)C(=O)N[C@@H](CCCCN)C(=O)O)C(C)C)C(C)C	cell growth or viability, MTT	32 µg/mL	–	viability	74.7%
Cc1ccn2c(-c3csc(Nc4ccccn4)n3)c(C)nc2c1	cell growth or viability, ATP luminescence	72 h	–	IC50	> 10 µM
N=C(N)NCCC[C@@H](NC(=O)[C@@H](CCCNC(=N)N)NC(=O)[C@@H](CCCNC(=N)N)NC(=O)[C@@H](CCCNC(=N)N)NC(=O)[C@@H](CCCNC(=N)N)NC(=O)[C@@H](CCCNC(=N)N)NC(=O)[C@@H](CCCNC(=N)N)NC(=O)[C@@H](CCCNC(=N)N)NC(=O)[C@@H](CCCNC(=N)N)NC(=O)[C@@H](CCCNC(=N)N)NC(=S)Nc1ccc2c(c1)C(=O)OC21c2ccc(O)cc2Oc2cc(O)ccc21)C(=O)O	–	–	–	intracellular stability	stable
CCCCCCCCCCCC1CC(=O)N[C@@H]([C@@H](C)O)C(=O)N[C@@H](Cc2ccccc2)C(=O)N[C@@H]([C@@H](C)O)C(=O)N[C@H]([C@H](C)O)C(=O)N[C@@H]([C@@H](C)O)C(=O)N[C@@H](Cc2ccccc2)C(=O)O1 (stereo partly shown)	MTT	3.2 mg	–	survival	17.9%

A few entries again:
Structure (SMILES)	assay	setting	scale	endpoint	result
O=C(O)CC[C@H](NC(=O)[C@H](CCC(=O)O)NC(=O)[C@H](CCC(=O)O)NC(=O)[C@H](CCC(=O)O)NC(=O)[C@H](CCC(=O)O)NC(=O)CNC(=O)[C@H](CCC(=O)O)NC(=O)CNC(=O)[C@H](CCC(=O)O)NC(=O)[C@@H](Cc1ccccc1)NC(=O)[C@@H](Cc1ccccc1)NC(=O)Cc1ccc2ccccc2c1)C(=O)O	MTT	400 µM, 3 days	–	viability	~90%
